Results collected from several papers.
Parts stem from different laboratories: compare values within a part only.
Sequence of UniProt Q92985 (whole entry, unmodified, looked up): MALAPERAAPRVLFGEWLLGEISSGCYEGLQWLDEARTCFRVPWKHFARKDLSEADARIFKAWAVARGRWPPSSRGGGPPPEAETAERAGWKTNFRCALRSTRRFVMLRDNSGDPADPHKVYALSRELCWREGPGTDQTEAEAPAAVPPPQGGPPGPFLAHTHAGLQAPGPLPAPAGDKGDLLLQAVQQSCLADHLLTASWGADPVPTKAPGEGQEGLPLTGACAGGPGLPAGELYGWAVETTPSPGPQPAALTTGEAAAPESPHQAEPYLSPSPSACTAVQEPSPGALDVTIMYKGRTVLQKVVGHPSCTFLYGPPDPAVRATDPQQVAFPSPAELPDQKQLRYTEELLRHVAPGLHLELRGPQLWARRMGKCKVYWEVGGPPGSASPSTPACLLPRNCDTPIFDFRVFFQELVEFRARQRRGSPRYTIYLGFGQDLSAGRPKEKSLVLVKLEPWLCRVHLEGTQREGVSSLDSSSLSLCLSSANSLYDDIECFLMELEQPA
Sequence of UniProt Q14653 (whole entry, unmodified, looked up): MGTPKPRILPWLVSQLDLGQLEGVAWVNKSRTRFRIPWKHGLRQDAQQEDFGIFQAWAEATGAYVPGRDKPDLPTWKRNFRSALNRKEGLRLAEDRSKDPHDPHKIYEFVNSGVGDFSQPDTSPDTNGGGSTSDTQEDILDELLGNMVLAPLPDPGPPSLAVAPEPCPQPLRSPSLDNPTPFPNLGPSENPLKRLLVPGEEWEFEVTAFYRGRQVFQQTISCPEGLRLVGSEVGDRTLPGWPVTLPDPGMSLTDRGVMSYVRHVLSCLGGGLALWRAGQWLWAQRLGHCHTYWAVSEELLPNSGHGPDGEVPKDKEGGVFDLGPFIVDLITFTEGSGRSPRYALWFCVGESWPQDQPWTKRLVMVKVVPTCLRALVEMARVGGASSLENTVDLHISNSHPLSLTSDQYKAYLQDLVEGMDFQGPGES

Study 1
Target: Prothrombin, mature alpha-thrombin (F2, Homo sapiens, UniProt P00734)
Technique: aptamer microarray, sandwich
Form: DNA with 2'F-ANA
Sample: in vitro
Concentration: 200 nM
Notes: whole 15-mer aptamer, many near background
With: Cy3 exosite-II aptamer, 400 nM
Direction: higher = stronger binding
| Sequence | mean fluorescence intensity [a.u.] |
| --- | --- |
| GGTTGGTGTGGTTGG (2'F-ANA at 3 5 6 9 10 12 14) | 66.7 |
| GGTTGGTGTGGTTGG (2'F-ANA at 6 10 14 15) | 150 |
| GGTTGGTGTGGTTGG (2'F-ANA at 1 3 4 6 7 11) | 159 |
| GGTTGGTGTGGTTGG (2'F-ANA at 1 2 3 4 8 9 11 15) | 223 |

Study 2
Target: Histone acetyltransferase KAT6A, both winged helices, GST fusion (KAT6A, Homo sapiens, UniProt Q92794, residues 1-181)
Technique: protein binding microarray
Form: double-stranded DNA, one strand shown
Sample: in vitro
Concentration: not given
Notes: 8-mer, flanks averaged, mean of 2 arrays, mostly near background
Reference: not given
Direction: higher = stronger binding
Target sequence (chain): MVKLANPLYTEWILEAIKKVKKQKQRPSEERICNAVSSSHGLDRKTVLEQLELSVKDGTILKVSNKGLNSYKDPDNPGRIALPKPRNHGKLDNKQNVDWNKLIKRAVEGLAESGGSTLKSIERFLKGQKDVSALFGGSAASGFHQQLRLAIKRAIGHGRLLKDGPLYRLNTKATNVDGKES
| Sequence | E-score |
| --- | --- |
| AGAATCGC | 0.169 |
| GCGAAGTA | 0.0517 |
| ACCGTCGC | 0.322 |

Further values, each from its own experiment
| Molecule | target | test | test system | setting | how to read | quantity | value |
| --- | --- | --- | --- | --- | --- | --- | --- |
| GCCTAGCACGACGATCTCAGACAGGAGACGTGCTAGGTCTTGATTCGCTTGACGCTGCTG | Interferon regulatory factor 7, full length, phosphomimetic (IRF7, Homo sapiens, UniProt Q92985, residues 1-503, S471D/S472D/S475D/S476D/S477D/S483D/S484D/S487D) | protein-binding microarray | double-stranded DNA, one strand shown, in vitro | 2200 nM top, 60-bp whole probe, with: salmon DNA 0.4 mg/ml | reference: random background probes, higher = stronger binding | fitted relative affinity | -0.106 z-score |
| PhoQ, residues 284 288 289 292 302 303 NLSRDF | PhoP, residues 12 14 15 18 19 VQGLL (Escherichia coli, UniProt P23836) | Sort-seq, measured: YFP reporter | E. coli | PhoQ-PhoP variant library, with: 10 µM Mg2+ | reference: high Mg2+ state, higher = stronger signaling | fold induction | 17.4 |
| GCCTAGCACTTTCGTATCTTCATTGTCATGTGCTAGGTCTTGATTCGCTTGACGCTGCTG | Interferon regulatory factor 3, full length, phosphomimetic (IRF3, Homo sapiens, UniProt Q14653, residues 1-427, S386D/S396D/S398D/S402D/T404D/S405D) | protein-binding microarray | double-stranded DNA, one strand shown, in vitro | 2540 nM top, 60-bp whole probe, with: salmon DNA 0.4 mg/ml | reference: random background probes, higher = stronger binding | fitted relative affinity | 5.89 z-score |
| GCCTAGCACGACGGACTGGGTTTCGGGGCGTGCTAGGTCTTGATTCGCTTGACGCTGCTG | Interferon regulatory factor 7, full length, phosphomimetic (IRF7, Homo sapiens, UniProt Q92985, residues 1-503, S101K/S471D/S472D/S475D/S476D/S477D/S483D/S484D/S487D) | protein-binding microarray | double-stranded DNA, one strand shown, in vitro | 250 nM, 60-bp whole probe, with: salmon DNA 0.4 mg/ml | reference: random background probes, higher = stronger binding | log fluorescence | 0.924 z-score |

Some of these lines once more (further values, each from its own experiment):
| Molecule | target | test | test system | setting | how to read | quantity | value |
| --- | --- | --- | --- | --- | --- | --- | --- |
| PhoQ, residues 284 288 289 292 302 303 NLSRDF | PhoP, residues 12 14 15 18 19 VQGLL (Escherichia coli, UniProt P23836) | Sort-seq, measured: YFP reporter | E. coli | PhoQ-PhoP variant library, with: 10 µM Mg2+ | reference: high Mg2+ state, higher = stronger signaling | fold induction | 17.4 |
| GCCTAGCACTTTCGTATCTTCATTGTCATGTGCTAGGTCTTGATTCGCTTGACGCTGCTG | Interferon regulatory factor 3, full length, phosphomimetic (IRF3, Homo sapiens, UniProt Q14653, residues 1-427, S386D/S396D/S398D/S402D/T404D/S405D) | protein-binding microarray | double-stranded DNA, one strand shown, in vitro | 2540 nM top, 60-bp whole probe, with: salmon DNA 0.4 mg/ml | reference: random background probes, higher = stronger binding | fitted relative affinity | 5.89 z-score |
